Published values collected from several papers.
Protocols differ between the studies behind these lines. Numbers after ± are the reported error.
Cell line: MCF7

| SMILES | read-out | technique | matrix | time | notes | IC50 |
| --- | --- | --- | --- | --- | --- | --- |
| CCCCCCCCn1c(-c2cccnc2)nc(-c2ccccc2)c1-c1ccccc1 | cell growth or viability | SRB | – | 24 h | – | 82.6 µM |
| CC(=O)N[C@H](Cc1ccccc1)C(=O)N[C@@H](CC(=O)N[C@H](CCCNC(=N)N)C(N)=O)c1ccc2ccccc2c1 | cell growth or viability | ATP luminescence | – | 72 h | – | > 50 µM |
| Fc1ccc(-c2noc(-c3cccs3)c2C(F)(F)F)cc1 | cell growth or viability | MTT | – | 48 h | – | 18.7 µM |
| N#C[CH2][Pd]1[O]c2ccc(Br)cc2C=Nc2cccnc2[N]1C1CCCCC1 | cell growth or viability | MTT | – | 48 h | – | 27.1 µM |
| O=C(NCCCCCCCCNc1n[n+]([O-])c2ccccc2[n+]1[O-])C(F)(F)F | cytotoxicity | MTT | 10% FBS medium | 6 h + 18 h | hypoxia 3% O2 | 32.8 ± 6.4 µM |
| C=C(C)[C@@H](O)[C@H](O)C[C@H](C)[C@@H]1CC[C@]23C[C@]12CC[C@@H]1[C@@]2(C)CC[C@@H](O)C(C)(C)[C@@H]2C[C@@H](OC(C)=O)[C@]13C | cell growth or viability | MTT | – | – | – | > 10 µM |
| C=CCc1ccc(OC(C)=O)c(OC)c1 | – | MTT | – | 24 h | – | > 50 µM |
| COc1cccc(CNC[C@](O)(COCc2ccccc2)[C@@H]2CC[C@@H](C)C[C@H]2OCc2ccccc2)c1 | cell growth or viability | MTT | – | 72 h | – | 0.68 µM |
| C=C1[C@@H]2[C@H]3OC(=O)/C(=C/c4ccccc4)[C@@H]3CCC(=C)[C@@H]2C[C@@H]1OC(C)=O | cell growth or viability | MTT | – | 48 h | – | 37 µM |
| CSc1nc(Nc2ccc(C(=O)N/N=C/c3c(Cl)cccc3Cl)cc2)c(C#N)c(-c2ccccc2)n1 | cell growth or viability | MTT | – | 48 h | – | 9.85 µM |
| COC(C)(C)/C=C/C[C@@](C)(O)[C@H]1CC[C@]2(C)[C@@H]1CC[C@@H]1[C@@]3(C)CCC(=O)C(C)(C)[C@@H]3CC[C@]12C | cell growth or viability | SRB | – | – | – | 22.2 µM |
| CC1=NN(C(N)=S)C(c2ccccc2)C1 (stereo not drawn) | cell growth or viability | LDH | – | 48 h | – | 5.8 µM |
| CC(=O)Oc1ccc(Br)cc1-c1cnc2ccccc2n1 | cell growth or viability | MTT | – | 48 h | – | 20.8 µM |
| C/C(=N\NC(=S)N(C)C)c1ccc(S(=O)(=O)N2CCC(C)CC2)cc1 | cell growth or viability | MTT | – | – | – | 19.3 µM |
| CCC(C(=O)O)C1CCC(C)C(C(C)C(O)C(C)C(=O)C(CC)C2OC3(C=CC(NCc4cn(-c5ccc(C(C)=O)cc5)nn4)C4(CCC(C)(C5CCC(O)(CC)C(C)O5)O4)O3)C(C)CC2C)O1 (stereo not drawn) | cell growth or viability | resazurin | – | 72 h | – | 0.43 µM |
| Oc1ncnc2c1sc1sc3c(O)ncnc3c12 | cell growth or viability | MTT | – | – | – | 8.96 µM |
| CC(C)c1cccc(C(C)C)c1-n1c(Cl)c(Cl)n(-c2c(C(C)C)cccc2C(C)C)c1=[Se].[Cl][Au] | cell growth or viability | MTT | – | 72 h | – | 8.2 µM |
| CCCCCCCCCCCCCCCOC(=O)/C=C/c1cccc(OC)c1 | cell viability | MTT | – | 48 h | serum-free medium | 6.9 ± 1 µg/mL |
| Cc1cc(-c2ccccc2)c2ccc3c(-c4ccccc4)cc(C)[n+]4c3c2[n+]1[Re-2]4(=[C]=O)(=[C]=O)(=[C]=O)[O]C(=O)c1ccccn1 | cell growth or viability | resazurin | – | 72 h | – | 1.65 µM |
| NS(=O)(=O)c1ccc(/N=N/c2ccc(O)c(/C=N/c3ccccn3)c2)cc1 | cell growth or viability | MTT | – | 72 h | – | 4.25 µM |
| CCC(CCC(C)C1CCC2C3CCC4=CC(=O)CCC4(C)C3CCC12C)C(C)C (stereo not drawn) | cell growth or viability | resazurin | – | 24 h | – | 169 µg/mL |
| CC1CCc2c(sc3ncnc(Nc4ccc(Nc5ncnc6sc7c(c56)CCC(C)C7)cc4)c23)C1 (stereo not drawn) | cell growth or viability | MTT | – | – | – | 56.2 µM |
| COc1cc(/C=C/C(=O)/C=C(O)/C=C/c2ccc(OCC(=O)N3CCOCCOCCOCCOCC3)c(OC)c2)ccc1OCC(=O)N1CCOCCOCCOCCOCC1 | cell growth or viability | SRB | – | – | – | 8.4 µM |
| COc1c(O)cc2oc3cc4c(c(O)c3c(=O)c2c1CC=C(C)C)C=CC(C)(C)O4 | cell growth or viability | – | – | 48 h | – | 16.8 µM |
| C=CC(=C)CC[C@]1(C)[C@H](C)C[C@H](O)[C@@]23C(=C[C@H](OC(=O)C(C)C)C[C@@H]12)[C@@H](OC(C)=O)O[C@H]3OC(C)=O | cell growth or viability | SRB | – | – | – | 0.68 µM |
| CCS(=O)(=O)Oc1cc(/C=N/NC(=O)c2nc3ccccc3s2)ccc1OC | cell growth or viability | MTT | – | 48 h | – | 78.8 µM |
| COc1cc(-c2ccc(C(=O)N/N=C/c3ccc(N(C)C)cc3)c(C)n2)cc(OC)c1OC | cell growth or viability | MTT | – | – | – | 50.1 µM |

| SMILES | read-out | technique | matrix | time | notes | IC50 |
| --- | --- | --- | --- | --- | --- | --- |
| CCCCCCCCCCCCCCCCOc1c(O)cc(C(=O)O[C@@H]2Cc3c(O)cc(O)cc3O[C@@H]2c2cc(O)c(O)c(O)c2)cc1O | cell growth or viability | CCK-8 | – | 24 h | – | 51.2 µM |
| Cc1nc([N+](=O)[O-])c(N2CCNCC2)n1Cc1ccccc1 | cell growth or viability | MTT | – | 72 h | – | 85 µM |
| Clc1cc(Br)c2c(c1)CCc1cccnc1C2=C1CCNCC1 | cell growth or viability | SRB | – | – | – | < 15 µM |
| CC/C(=C(\c1ccccc1)c1ccc(OCCN(C)CCCCC(=O)NCCCOc2ccc3[nH]cc(CCNC(C)=O)c3c2)cc1)c1ccccc1 | cell survival | MTT | – | day 9 | dosed days 2, 4, 7 | 2.8 µM |
| C[C@@H]1CC[C@@H]([C@@](O)(CNCc2ccccc2F)COCc2ccccc2)[C@H](OCc2ccccc2)C1 | cell growth or viability | MTT | – | 72 h | – | 5.1 µM |
| CCCC(CCC)C(=O)[O][Pt]([Cl])([Cl])[O]C(C)=O.N.N | cytotoxicity | – | – | 72 h | – | 5.74 ± 1.1 µM |
| Cc1c(C)c(C)[c-](C)c1C.O=[N+]([O-])c1ccnc(-c2[c-]cccc2)c1.[Cl-].[Ir+3] | – | SRB | – | 24 h | 72 h recovery | 11.4 ± 0.4 µM |
| NC(=S)NNC(=O)c1cc2ccc(O)cc2oc1=O | cell growth or viability | SRB | – | 72 h | – | 4.5 µM |
| O=[N+]([O-])c1cnccc1N1c2cccnc2Sc2cccnc21 | cell growth or viability | WST-1 | – | 72 h | – | < 5 µg/mL |
| COc1c(OCc2ccccc2)cc2oc3cc(OCc4ccccc4)c(CC=C(C)C)c(O)c3c(=O)c2c1CC=C(C)C | cell growth or viability | – | – | 48 h | – | 13 µM |
| COc1ccc2cc3[n+](cc2c1OCc1cn(Cc2ccccc2C#N)nn1)CCc1cc2c(cc1-3)OCO2 | cell growth or viability | MTT | – | – | – | 209 µM |
| O=C(NCCCCCNc1n[n+]([O-])c2ccccc2[n+]1[O-])C(F)(F)F | cytotoxicity | MTT | – | 24 h | normoxia | > 111 µM |
| Cc1c(C(=O)NNC(=O)Nc2ccc(Cl)cc2)nnn1Cc1nc2ccccc2[nH]1 | – | – | – | 48 h | – | 21.6 ± 1.9 µM |
| CCN1CCC2(CC1)C/C(=N\N=C\c1ccc(O)cc1)c1ccccc1O2 | cell growth or viability | MTT | – | 48 h | – | 35.6 µM |
| CCOC(=O)CS/C(Nc1ccccc1)=C(\C#N)C(=O)Nc1nnc(NC(=O)c2ccccc2)s1 | cell growth or viability | MTT | – | 48 h | – | 69.7 µM |
| COc1ccc2cc3[n+](cc2c1OCc1cn(Cc2ccccc2Br)nn1)CCc1cc2c(cc1-3)OCO2 | cell growth or viability | MTT | – | – | – | 25.5 µM |
| COc1cc(C2COc3cc(O)cc(O)c3C2=NN)c(OC)cc1O (stereo not drawn) | cell growth or viability | MTT | – | 72 h | – | 166 µM |
| CN(C)CCO/N=C1/C=C2CCC3C(CC[C@]4(C)/C(=C/c5ccccn5)CCC34)[C@@]2(C)CC1 (stereo partly drawn) | cell growth or viability | MTT | – | 72 h | – | > 100 µM |
| [CH3][Pd-2]([Cl])([N+](=Cc1ccc[nH]1)Cc1ccccc1)[N+](=Cc1ccc[nH]1)Cc1ccccc1 | cell growth or viability | MTT | – | 24 h | – | > 100 µg/mL |
| COc1cccc2c1C(=O)c1c(O)c3c(c(O)c1C2=O)CC(O)(C(=O)CO)CC3OC1CC(NC(=O)C[C@H](N)C(=O)O)C(O)C(C)O1 (stereo partly drawn) | cell growth or viability | MTT | – | 48 h | – | 17.5 µg/mL |
| CC(C)(C)c1cc2c(O)c(c1)Cc1cc(C(C)(C)C)cc(c1OCC(=O)Nc1nccs1)Cc1cc(C(C)(C)C)cc(c1O)Cc1cc(C(C)(C)C)cc(c1OCC(=O)Nc1nccs1)COC2 | cell growth or viability | MTT | – | 72 h | – | 2.7 µM |
| COc1ccc(/C(=C(/CCn2cc(CN3C(=O)C4(OCCO4)c4cc(Br)ccc43)nn2)c2ccccc2)c2ccccc2)cc1 | cell growth or viability | MTT | – | – | – | > 100 µM |
| CCN(CC)c1ccc2c(c1)[O][Pt-2]1([Cl])[N+](=C2)CC[NH+]1c1ccccc1 (stereo not drawn) | cell growth or viability | MTT | – | – | – | 28.3 µM |
| c1ccc(-c2nc(-c3cccnc3)[nH]c2-c2ccccc2)cc1 | cell growth or viability | SRB | – | 24 h | – | > 100 µM |
| CCNC(=O)NC(=O)COC(=O)c1cn(-c2ccccc2)nc1-c1ccc(C)cc1C | cell growth or viability | MTT | – | 24 h | – | 143 µM |
| CCCCCCCCn1c(-c2cccnc2)nc(-c2ccc(C)cc2)c1-c1ccc(C)cc1 | cell growth or viability | SRB | – | 48 h | – | > 100 µM |
| CSc1nc(Nc2ccc(/C(C)=N/NC(=O)c3cccc(Cl)c3)cc2)c(C#N)c(-c2ccccc2)n1 | cell growth or viability | MTT | – | 48 h | – | 10.9 µM |

For quick reference, copied from above:
| SMILES | read-out | technique | matrix | time | notes | IC50 |
| --- | --- | --- | --- | --- | --- | --- |
| O=C(NCCCCCNc1n[n+]([O-])c2ccccc2[n+]1[O-])C(F)(F)F | cytotoxicity | MTT | – | 24 h | normoxia | > 111 µM |
| Cc1c(C(=O)NNC(=O)Nc2ccc(Cl)cc2)nnn1Cc1nc2ccccc2[nH]1 | – | – | – | 48 h | – | 21.6 ± 1.9 µM |
| CCN1CCC2(CC1)C/C(=N\N=C\c1ccc(O)cc1)c1ccccc1O2 | cell growth or viability | MTT | – | 48 h | – | 35.6 µM |
| CCOC(=O)CS/C(Nc1ccccc1)=C(\C#N)C(=O)Nc1nnc(NC(=O)c2ccccc2)s1 | cell growth or viability | MTT | – | 48 h | – | 69.7 µM |
| COc1ccc2cc3[n+](cc2c1OCc1cn(Cc2ccccc2Br)nn1)CCc1cc2c(cc1-3)OCO2 | cell growth or viability | MTT | – | – | – | 25.5 µM |
| COc1cc(C2COc3cc(O)cc(O)c3C2=NN)c(OC)cc1O (stereo not drawn) | cell growth or viability | MTT | – | 72 h | – | 166 µM |
| CN(C)CCO/N=C1/C=C2CCC3C(CC[C@]4(C)/C(=C/c5ccccn5)CCC34)[C@@]2(C)CC1 (stereo partly drawn) | cell growth or viability | MTT | – | 72 h | – | > 100 µM |
| [CH3][Pd-2]([Cl])([N+](=Cc1ccc[nH]1)Cc1ccccc1)[N+](=Cc1ccc[nH]1)Cc1ccccc1 | cell growth or viability | MTT | – | 24 h | – | > 100 µg/mL |
| COc1cccc2c1C(=O)c1c(O)c3c(c(O)c1C2=O)CC(O)(C(=O)CO)CC3OC1CC(NC(=O)C[C@H](N)C(=O)O)C(O)C(C)O1 (stereo partly drawn) | cell growth or viability | MTT | – | 48 h | – | 17.5 µg/mL |
